Published values from different studies.
Each line is one published result; not all experiments were run side by side.
Cell line: TMD8
Observed: cell growth or viability

SMILES = CC#CC(=O)N1CCC[C@H]1c1nc(-c2ccc(C(=O)Nc3ccccn3)cc2)c2c(N)nccn12; method = ATP luminescence; time = 96 h; quantity = IC50; value = 7.5 nM
SMILES = O=C(NCC1(c2nc(-c3ccccc3)cs2)CCOCC1)c1cccc(-c2noc(C(F)(F)F)n2)c1; method = CCK-8; time = 7 days; quantity = IC50; value = > 20000 nM
SMILES = C=CC(=O)N1CCCC(n2c(=O)c3ncccc3n(Cc3ccc(Oc4ccccc4)cc3)c2=O)C1 (stereo not drawn); method = MTT; time = 72 h; quantity = IC50; value = 500 nM
SMILES = CCC1C(COc2nccc3cc(C(N)=O)c(OC)cc23)NC(=O)C1F (stereo not drawn); method = WST-1; time = 72 h; quantity = GI50; value = > 10000 nM
SMILES = CC#CC(=O)N1CCC[C@H]1c1nc(-c2ccc(C(=O)Nc3ccccn3)cc2)c2c(N)nccn12; method = ATP luminescence; time = 72 h; quantity = IC50; value = 4.9 nM
SMILES = Fc1cncc(-c2ccc3[nH]c4ncnc(N[C@H]5CC[C@H](N6CCOCC6)CC5)c4c3c2)c1; method = WST-1; time = 72 h; quantity = GI50; value = 1800 nM
SMILES = O=C1CCC(N2C(=O)c3ccc(N4CCC(C(=O)N5CCC(CCN6CCC(CNC(=O)c7cccc(-c8noc(C(F)(F)F)n8)c7)(c7nc(-c8ccccc8)cs7)CC6)CC5)CC4)cc3C2=O)C(=O)N1 (stereo not drawn); method = CCK-8; time = 7 days; quantity = IC50; value = 1880 nM
SMILES = C=CC(=O)N1CCC[C@@H](n2nc(-c3ccc(Oc4ccccc4)cc3)c3c(N)ncnc32)C1; method = ATP luminescence; time = 96 h; quantity = IC50; value = 1.5 nM
SMILES = C=CC(=O)N1CCC([C@@H]2CCNc3c(C(N)=O)c(-c4ccc(Oc5ccccc5)cc4)nn32)CC1; method = ATP luminescence; time = 72 h; quantity = IC50; value = 0.6 nM

Some of these lines once more:
SMILES = C=CC(=O)N1CCC[C@@H](n2nc(-c3ccc(Oc4ccccc4)cc3)c3c(N)ncnc32)C1; method = ATP luminescence; time = 96 h; quantity = IC50; value = 1.5 nM
